Experimental data collected from several papers.
Compare with care: the assays were run in different laboratories. Several values in a cell are separate wells, animals, samples, runs or records. ± gives the spread as reported. ≈ marks a conversion by molar mass, not a printed value.
Sequence of UniProt P09936 (whole entry, looked up): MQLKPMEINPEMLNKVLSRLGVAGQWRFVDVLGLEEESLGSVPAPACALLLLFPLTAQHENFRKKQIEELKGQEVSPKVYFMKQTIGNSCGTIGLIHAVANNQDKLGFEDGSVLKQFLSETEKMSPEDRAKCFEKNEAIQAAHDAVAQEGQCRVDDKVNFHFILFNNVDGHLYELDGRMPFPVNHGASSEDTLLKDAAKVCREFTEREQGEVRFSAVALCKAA

Structure (SMILES)	tested on	assay	system	setting	how to read	measurement	result
O=c1[nH]cc(F)c(=O)[nH]1	Toxoplasma gondii	parasite growth	HFF, bradyzoite, alkaline-induced	–	–	EC90	10.8 µM
OC[C@H]1O[C@@H](O[C@@H]2[C@@H](O)[C@H](O[C@@H]3[C@@H](O)[C@H](O[C@@H]4[C@@H](O)[C@H](O[C@H]5[C@H](O)[C@@H](CO)OC(O)[C@@H]5O)O[C@H](CO)[C@H]4O)O[C@H](CO)[C@H]3O)O[C@H](CO)[C@H]2O)[C@H](O)[C@@H](O)[C@@H]1O (stereo partly drawn)	Bacteroides uniformis	binding, ITC	–	pH 7.0, 25 °C, distal domain	–	ΔG	-24 kcal/mol
NC(=O)c1ncn([C@@H]2O[C@H](CO)[C@@H](O)[C@H]2O)n1	hepatitis E virus	viral replication, Renilla luciferase replicon	S10-3 replicon, genotype 1	3.12 µM, 48 h	–	inhibition	62.5%
O=C(C#Cc1ccc(F)c(F)c1)c1ccc(Cl)cc1	Pseudomonas aeruginosa	static biofilm	PA14	10 µM, 24 h, static	reference: DMSO	biofilm formation	62%
CO[C@H]1/C=C/O[C@@]2(C)Oc3c(C)c(O)c4c(c3C2=O)C2=NC3(CCN(CC(C)C)CC3)NC2=C(NC(=O)/C(C)=C\C=C\[C@H](C)[C@H](O)[C@@H](C)[C@@H](O)[C@@H](C)[C@H](OC(C)=O)[C@@H]1C)C4=O	Mycobacteroides abscessus	bacterial growth	subsp. massiliense 095 clinical isolate	mixed morphotype	–	IC90	11.3 µM
Oc1ccc2c(c1)OC[C@]1(O)Cc3cc(O)c(O)cc3[C@H]21	Toxoplasma gondii	parasite growth	HFF, bradyzoite, glutamine-induced	–	–	EC90	1.1 µM
COc1cc(C#CC(=O)c2cccc(C)c2)ccc1O	Pseudomonas aeruginosa	static biofilm	PA14	10 µM, 24 h	reference: DMSO	biofilm formation	77%
O=C(Cn1ccnc1[N+](=O)[O-])NCc1ccccc1	Trypanosoma cruzi	–	Vero, Tulahuen β-galactosidase	–	reference: Vero CC50 over T. cruzi IC50	selectivity index	> 82.4
Cl.Cl.NCc1ccc(-c2nc(-c3ccc(CN4CCCC4)cc3)no2)cc1	Clostridioides difficile	spore germination	ATCC 43255	45 µM	–	activity	inactive
Cc1cc(OC(C)C)ccc1C(=O)C(C)(C)NC(=O)c1sccc1C	Botrytis cinerea	conidial germination	B05.10	0.01 µg/mL	–	inhibition	10.6 ± 0.3%
OC(C#Cc1ccc(F)c(F)c1)c1ccccc1 (stereo not drawn)	Pseudomonas aeruginosa	static biofilm	PA14	10 µM, 24 h	reference: DMSO	biofilm formation	78%
O=C(/C=C/c1ccc(O)c(O)c1)O[C@H]1[C@H](O)C[C@](O)(C(=O)O)C[C@H]1O	HIV-1	viral infection	TZM-bl, BaL (CCR5-tropic)	48 h	–	IC50	> 100000 nM
O=C(C#Cc1ccc(F)c(F)c1)c1ccccc1	Pseudomonas aeruginosa	static biofilm	PA14	10 µM, 24 h	reference: DMSO	biofilm formation	77%
N=C(N)c1ccc(OCc2cc(COc3ccc(C(=N)N)cc3)cc(-c3ccccc3)c2)cc1	Escherichia coli	checkerboard	mcr-3 polymyxin-resistant	unit not given, with: rifampicin	lower = stronger synergy	FICI	0.031
CCCC(=O)OCSc1ccccc1C(=O)NCCn1cc(C(=O)OCC)c(=O)c2cc3c(cc21)OCO3	HIV-1	virus-induced cytopathic effect, inhibitor, XTT	CEM-SS, RF	6 days	–	EC50	1690 ± 460 nM
OC(Cn1cncn1)(Cn1cncn1)c1ccc(F)cc1F	Cryptococcus neoformans	–	117, RPMI 1640	24 h, 35 °C	–	MIC	50 µM (≈ 15.3 µg/mL)
Cc1ccc(C(=O)N(CCCN)[C@@H](c2oc3cc(Cl)ccc3c(=O)c2Cc2ccccc2)C(C)C)cc1	Toxoplasma gondii	parasite growth	HFF, bradyzoite, glutamine-induced	–	–	EC90	7.24 µM
NC[C@H]1O[C@H](O[C@H]2[C@H](O)[C@@H](O[C@H]3O[C@H](CO)[C@@H](O)[C@H](N)[C@H]3O)[C@H](N)C[C@@H]2N)[C@H](O)[C@@H](O)[C@@H]1O	Proteus vulgaris	–	CPCC 160013	8 µg per disc, 24 h, 37 °C	–	inhibition zone diameter	15.4 mm
c1ccc(-c2ccc3c(c2)NC(C2Nc4cc(-c5ccccc5)ccc4O2)O3)cc1 (stereo not drawn)	Leishmania martiniquensis	parasite growth	THP-1-derived macrophages, intracellular amastigotes	48 h	–	IC50	2610 ± 1220 nM
COc1cc(C#CC(=O)c2ccccc2C)ccc1O	Pseudomonas aeruginosa	static biofilm	PA14	10 µM, 24 h, static	reference: DMSO	biofilm formation	75%
CCc1nn(C)c2nc(-c3ccc(C(=O)O)cc3)nc(NCc3ccc(F)cc3)c12	Cryptosporidium parvum	–	HCT-8	EC50, 3 h	reference: DMSO control	parasite number	105% and 109% and 110% and 106%
OC[C@H]1O[C@@H](O[C@@H]2[C@@H](O)[C@H](O[C@@H]3[C@@H](O)[C@H](O[C@@H]4[C@@H](O)[C@H](O[C@@H]5[C@@H](O)[C@H](O[C@H]6[C@H](O)[C@@H](CO)OC(O)[C@@H]6O)O[C@H](CO)[C@H]5O)O[C@H](CO)[C@H]4O)O[C@H](CO)[C@H]3O)O[C@H](CO)[C@H]2O)[C@H](O)[C@@H](O)[C@@H]1O (stereo partly drawn)	Bacteroides uniformis	binding, ITC	–	pH 7.0, 25 °C, middle domain	–	ΔG	-26.9 kcal/mol
CC(Cl)C(=O)Nc1ccc(C2CC(=O)NC(=O)N2)cc1 (stereo not drawn)	Ubiquitin carboxyl-terminal hydrolase isozyme L1 (UCHL1, Homo sapiens, UniProt P09936)	covalent, intact protein LC-MS	–	12.5 µM	–	labelling	9.1%

Structure (SMILES)	tested on	assay	system	setting	how to read	measurement	result
OC[C@H]1O[C@@H](O[C@@H]2[C@@H](O)[C@H](O[C@H]3[C@H](O)[C@@H](CO)OC(O)[C@@H]3O)O[C@H](CO)[C@H]2O)[C@H](O)[C@@H](O)[C@@H]1O (stereo partly drawn)	Bacteroides uniformis	binding, ITC	–	pH 7.0, 25 °C, distal domain	–	-TΔS	-2.16 kcal/mol
OC(C#Cc1ccc(F)c(F)c1)c1ccccc1Cl (stereo not drawn)	Pseudomonas aeruginosa	static biofilm	PA14	10 µM, 24 h, static	reference: DMSO	biofilm formation	137%
CCc1nc(N)nc(N)c1-c1ccc(Cl)cc1	Toxoplasma gondii	[3H]uracil incorporation	human fibroblasts, RH wild type	25 µM	–	parasite survival	25.1%
Cl.Cl.NCc1ccc(-c2nc(-c3ccc(O[C@@H]4CCNC4)cc3)no2)cc1	Clostridioides difficile	spore germination	ATCC 43255	45 µM	–	activity	inactive
CC(=Nc1ccc(N=Cc2cnccn2)cc1)N(C)C	Necator americanus	–	infected hamsters, small intestine	oral, 50 mg/kg single, 3 h	–	worm count	1.8 ± 0.8
COC[C@H]1O[C@@H]2O[C@@H]3[C@@H](OC)[C@@H](OC)[C@@H](O[C@@H]4[C@@H](OC)[C@@H](OC)[C@@H](O[C@@H]5[C@@H](OC)[C@@H](OC)[C@@H](O[C@@H]6[C@@H](OC)[C@@H](OC)[C@@H](O[C@@H]7[C@@H](OC)[C@@H](OC)[C@@H](O[C@@H]1[C@@H](OC)[C@H]2OC)O[C@@H]7COC)O[C@@H]6COC)O[C@@H]5COC)O[C@@H]4COC)O[C@@H]3COC	Escherichia coli	LuxR reporter, antagonist	DH5α sensor strain	20 µM, with: OHHL 200 nM	–	inhibition	4 ± 12%
CC1(C)CCC2=C(O1)c1ccccc1C(=O)C2=O	Toxoplasma gondii	parasite growth, luciferase reporter	HFF, tachyzoite	72 h	–	EC90	48.1 µM
OC(Cn1cncn1)(Cn1cncn1)c1ccc(F)cc1F	Nakaseomyces glabratus	EUCAST	–	48 h	–	MIC50	0.4 µM
C[n+]1cc2c3c(ccc2c2ccc4cc5c(cc4c21)OCO5)OCO3	Toxoplasma gondii	parasite growth, luciferase reporter	HFF, tachyzoite	72 h	–	EC90	1.9 µM
N=C(N)NCCC[C@@H](NC(=O)CCOCCOCCNC(=O)[C@H](CCCCNC(=O)CC[C@H](NC(=O)c1ccc(NCc2cnc3nc(N)[nH]c(=O)c3n2)cc1)C(=O)O)NC(=O)CO/N=C/[C@H](F)[C@@H](O)[C@H](O)[C@H](O)CO)C(=O)NCC(=O)N[C@H](CC(=O)O)C(N)=O [fluorine-18 labelled]	–	–	female nude mice, MDA-MB-231 xenograft, lung	45 min to 2.5 h	–	maximum lung uptake	≤ 1.35 %ID/g
COc1cc(C#CC(=O)c2cccc(Cl)c2)ccc1O	Pseudomonas aeruginosa	static biofilm	PA14	10 µM, 24 h	reference: DMSO	biofilm formation	67%
Cc1ccc(Nc2cnnc3cc(-c4cnc(N5CCCN(C)CC5)nc4)ccc23)cn1	Leishmania donovani	–	B10R cells	–	–	EC50	1700 nM
CC(C)(C)c1cc(/C=C(\C#N)C(N)=S)cc(C(C)(C)C)c1O	Toxoplasma gondii	parasite growth	HFF, bradyzoite, glutamine-induced	–	–	EC90	4.69 µM
Cc1cn([C@H]2C[C@H](N=[N+]=[N-])[C@@H](CO)O2)c(=O)[nH]c1=O	HIV-1	viral cytopathic effect, XTT	CEM-SS, RF	with: glutathione 2 mM	–	EC50	5 ± 1 nM
OC[C@H]1O[C@@H](O[C@@H]2[C@@H](O)[C@H](O[C@@H]3[C@@H](O)[C@H](O[C@H]4[C@H](O)[C@@H](CO)OC(O)[C@@H]4O)O[C@H](CO)[C@H]3O)O[C@H](CO)[C@H]2O)[C@H](O)[C@@H](O)[C@@H]1O (stereo partly drawn)	Bacteroides uniformis	binding, ITC	–	pH 7.0, 25 °C, middle domain	–	-TΔS	-1.4 kcal/mol
Fc1cccc(N/N=C/c2ccc(-c3cccc(/C=N/Nc4cccc(F)c4)c3)cc2)c1	Nakaseomyces glabratus	–	ATCC 2001	–	reference: mammalian CC50 over MIC	selectivity index	< 0.4
Nc1nc(-c2ccccc2)nc2[nH]nc(Nc3ccc(C(F)(F)F)cc3)c12	coxsackievirus B3	–	31-1-93, NMRI mice, CVB3 chronic myocarditis	oral, 100 mg/kg twice daily, day 3, dosed days 3 to 10, score scale 0 to 7	direction not given	clinical score	0.4
COc1ccccc1C(=O)C#Cc1ccc(F)c(F)c1	Pseudomonas aeruginosa	RT-qPCR, refers to: lasB	biofilm cells	10 µM, 24 h	reference: untreated	mRNA level	51%
CC(=O)OC[C@H]1O[C@@H]([S-])[C@H](OC(C)=O)[C@@H](OC(C)=O)[C@@H]1OC(C)=O.CCP(CC)CC.[Au+]	Toxoplasma gondii	parasite growth	HFF, bradyzoite, alkaline-induced	–	–	EC50	950 nM
CC(C)n1ncc2c(C(=O)NCC3(C)CNC3)cc(C3CC3)nc21	Enterovirus D68	cytopathic effect	RD, US/MO/14-18947	150 nM	–	cell protection	0.928% and 1.19% and 1.59%
COCCOC(=O)C1=C(C)NC(C)=C(C(=O)OC/C=C/c2ccccc2)C1c1cccc([N+](=O)[O-])c1 (stereo not drawn)	Toxoplasma gondii	parasite growth, luciferase reporter	HFF, tachyzoite	72 h	–	EC90	1520 µM
CC(=O)NC[C@H]1CN(c2ccc(N3CCOCC3)c(F)c2)C(=O)O1	Streptococcus pneumoniae	–	penicillin-resistant, 10 isolates	serum 50%	–	MIC50	2 µg/mL

A few entries again:
Structure (SMILES)	tested on	assay	system	setting	how to read	measurement	result
Fc1cccc(N/N=C/c2ccc(-c3cccc(/C=N/Nc4cccc(F)c4)c3)cc2)c1	Nakaseomyces glabratus	–	ATCC 2001	–	reference: mammalian CC50 over MIC	selectivity index	< 0.4
Nc1nc(-c2ccccc2)nc2[nH]nc(Nc3ccc(C(F)(F)F)cc3)c12	coxsackievirus B3	–	31-1-93, NMRI mice, CVB3 chronic myocarditis	oral, 100 mg/kg twice daily, day 3, dosed days 3 to 10, score scale 0 to 7	direction not given	clinical score	0.4
COc1ccccc1C(=O)C#Cc1ccc(F)c(F)c1	Pseudomonas aeruginosa	RT-qPCR, refers to: lasB	biofilm cells	10 µM, 24 h	reference: untreated	mRNA level	51%
CC(=O)OC[C@H]1O[C@@H]([S-])[C@H](OC(C)=O)[C@@H](OC(C)=O)[C@@H]1OC(C)=O.CCP(CC)CC.[Au+]	Toxoplasma gondii	parasite growth	HFF, bradyzoite, alkaline-induced	–	–	EC50	950 nM
CC(C)n1ncc2c(C(=O)NCC3(C)CNC3)cc(C3CC3)nc21	Enterovirus D68	cytopathic effect	RD, US/MO/14-18947	150 nM	–	cell protection	0.928% and 1.19% and 1.59%
